Experimental data from different studies.
Each numbered part is a random draw from the data of one study; scales do not carry over between parts.

Set 1
Target: Interferon regulatory factor 5, full length, phosphomimetic (IRF5, Homo sapiens, UniProt Q13568-2, residues 1-514, S451D/S453D/S456D/S462D)
Method: protein-binding microarray
Form: double-stranded DNA, one strand shown
Sample: in vitro
Tested at: 940 nM top
Setting: 60-bp whole probe
With: salmon DNA 0.4 mg/ml
Baseline: random background probes
Direction: higher = stronger binding
All sequences stand within: GCCTAGCAC … GTCTTGATTCGCTTGACGCTGCTG
`GACGGTATCGCCTATCGGGACGTGCTA`: “fitted relative affinity” 3.29 z-score.
`CTTTCTATGTCTGTTTTTGCGTGCTAG`: “fitted relative affinity” 1.81 z-score.
`TTAGGTTTCCTTTTGCTTTAGTGCTAG`: “fitted relative affinity” 2.37 z-score.
For `TTAGGACCGGACACTGGGTTAGTGCTA`, “fitted relative affinity” read -0.206 z-score.
For `TTAGATTTCGGGTATCGATTTGTGCTA`, “fitted relative affinity” read 3.7 z-score.
`TTAGCTATCCTTATCCTTTAGTGCTAG` — result for “fitted relative affinity”: 0.532 z-score.
For `TACGATATCGGGTTTCGAGACGTGCTA`, “fitted relative affinity” read 2.24 z-score.
For `GACGGACTGGACACTGGGGAGGTGCTA`, “fitted relative affinity” read -0.205 z-score.

Set 2
Target: Prothrombin, mature alpha-thrombin (F2, Homo sapiens, UniProt P00734)
Method: aptamer microarray, sandwich
Form: DNA with 2'F-ANA
Sample: in vitro
Tested at: 200 nM
Setting: whole 15-mer aptamer, many near background
With: Cy3 exosite-II aptamer, 400 nM
Direction: higher = stronger binding
Strand: GGTTGGTGTGGTTGG
For `2'F-ANA at 1 4 6 7 8 10 13 14 15`, “mean fluorescence intensity” read 165 a.u.
`2'F-ANA at 3 4 5 6 9 10`: “mean fluorescence intensity” 49.2 a.u.
For `2'F-ANA at 2 3 6 9 11 12 14 15`, “mean fluorescence intensity” read 348 a.u.
`2'F-ANA at 1 7 9 10 12 14 15`: “mean fluorescence intensity” 53.6 a.u.
`2'F-ANA at 3 5 7 9 10 11 12 13 14 15` — result for “mean fluorescence intensity”: 58.6 a.u.
`2'F-ANA at 3 4 6 11 12 13 15`: “mean fluorescence intensity” 580 a.u.
For `2'F-ANA at 10 12 13`, “mean fluorescence intensity” read 237 a.u.
`2'F-ANA at 2 6 8 10 12 13 14 15` — result for “mean fluorescence intensity”: 78.7 a.u.

Set 3
Target: Sal-like protein 4, full length isoform B (SALL4, Homo sapiens, UniProt Q9UJQ4-2, residues 1-616)
Method: universal PBM
Form: double-stranded DNA, one strand shown
Sample: in vitro
Tested at: not given
Setting: 8-mer, flanks averaged, mean of replicates
Direction: higher = stronger binding
With `CCGGGACG` the E-score was -0.253.
The E-score of `AGCTAAAT` is reported as 0.113.
With `AGTCTAAT` the E-score was 0.141.
With `CACCGCCC` the E-score was -0.186.
`AGCTTACA` gave an E-score of 0.23.
`AGTAATTC` has an E-score of 0.211.
`ACCCACGG` gave an E-score of -0.334.
`GCAAACCC` has an E-score of -0.196.

Mixed results
With `COc1ccc(OC)c(C2C(C#N)=C(N)Oc3n[nH]c(-c4ccc5ccccc5c4)c32)c1` (stereo not shown) the nuclei count was -0.216 z-score (mouse MPNST tumor cells; high-content nuclear imaging, refers to: cell number; 10 µM, 12 h, mean of 2 replicates; baseline: plate mean, higher = more cells).

Some of these lines once more (set 2):
`2'F-ANA at 1 7 9 10 12 14 15`: “mean fluorescence intensity” 53.6 a.u.
`2'F-ANA at 3 5 7 9 10 11 12 13 14 15` — result for “mean fluorescence intensity”: 58.6 a.u.
`2'F-ANA at 3 4 6 11 12 13 15`: “mean fluorescence intensity” 580 a.u.
